Results pooled from the literature.
Compare with care: the assays were run in different laboratories.
rep papain-like protease: Replicase polyprotein 1ab, papain-like protease (rep, Porcine epidemic diarrhea virus, UniProt P0C6Y4)
AMY2: Pancreatic alpha-amylase (AMY2, Sus scrofa, UniProt P00690)
UniProt P00690, sequence (whole entry, looked up): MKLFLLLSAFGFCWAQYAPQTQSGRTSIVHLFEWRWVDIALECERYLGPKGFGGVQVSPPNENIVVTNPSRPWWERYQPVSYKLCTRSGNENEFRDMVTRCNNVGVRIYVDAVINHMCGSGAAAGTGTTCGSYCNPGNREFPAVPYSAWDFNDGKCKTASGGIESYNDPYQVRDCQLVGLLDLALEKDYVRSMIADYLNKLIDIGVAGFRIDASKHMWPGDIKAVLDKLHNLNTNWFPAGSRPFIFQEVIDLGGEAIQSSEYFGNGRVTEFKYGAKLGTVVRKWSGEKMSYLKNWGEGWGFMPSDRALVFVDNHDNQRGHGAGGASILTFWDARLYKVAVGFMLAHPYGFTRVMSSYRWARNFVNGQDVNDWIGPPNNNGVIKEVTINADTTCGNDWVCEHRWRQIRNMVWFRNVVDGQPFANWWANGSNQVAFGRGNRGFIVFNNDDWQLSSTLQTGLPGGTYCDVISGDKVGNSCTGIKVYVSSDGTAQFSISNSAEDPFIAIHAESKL
UniProt P27361, sequence (whole entry, looked up): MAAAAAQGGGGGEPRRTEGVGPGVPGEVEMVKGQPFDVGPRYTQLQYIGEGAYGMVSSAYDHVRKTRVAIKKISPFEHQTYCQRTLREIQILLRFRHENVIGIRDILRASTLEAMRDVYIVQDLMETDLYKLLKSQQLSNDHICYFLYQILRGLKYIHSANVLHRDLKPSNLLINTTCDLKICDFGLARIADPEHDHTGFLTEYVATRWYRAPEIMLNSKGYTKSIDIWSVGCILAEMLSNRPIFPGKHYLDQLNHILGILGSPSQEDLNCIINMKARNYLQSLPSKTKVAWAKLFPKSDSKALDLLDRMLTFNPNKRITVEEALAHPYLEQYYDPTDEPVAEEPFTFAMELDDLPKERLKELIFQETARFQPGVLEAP
UniProt Q06187, sequence (whole entry, looked up): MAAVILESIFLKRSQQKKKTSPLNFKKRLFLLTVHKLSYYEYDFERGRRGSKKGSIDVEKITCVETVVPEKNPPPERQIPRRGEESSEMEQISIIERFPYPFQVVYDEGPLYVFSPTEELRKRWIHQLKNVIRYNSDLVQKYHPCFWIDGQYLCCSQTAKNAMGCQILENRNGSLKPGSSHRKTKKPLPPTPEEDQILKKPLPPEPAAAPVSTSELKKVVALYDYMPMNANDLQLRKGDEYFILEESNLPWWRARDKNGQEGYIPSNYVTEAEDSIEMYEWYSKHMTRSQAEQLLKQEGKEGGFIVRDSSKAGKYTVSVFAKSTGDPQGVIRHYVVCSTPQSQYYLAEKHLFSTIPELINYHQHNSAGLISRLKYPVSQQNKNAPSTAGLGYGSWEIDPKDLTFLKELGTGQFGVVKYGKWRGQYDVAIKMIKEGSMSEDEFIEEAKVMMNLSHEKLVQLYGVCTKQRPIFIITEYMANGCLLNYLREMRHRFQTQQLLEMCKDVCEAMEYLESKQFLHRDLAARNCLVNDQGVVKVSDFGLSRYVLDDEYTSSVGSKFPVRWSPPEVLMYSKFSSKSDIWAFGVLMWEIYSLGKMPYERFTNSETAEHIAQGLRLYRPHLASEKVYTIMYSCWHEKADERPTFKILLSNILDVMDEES
UniProt Q96GD4, sequence (whole entry, looked up): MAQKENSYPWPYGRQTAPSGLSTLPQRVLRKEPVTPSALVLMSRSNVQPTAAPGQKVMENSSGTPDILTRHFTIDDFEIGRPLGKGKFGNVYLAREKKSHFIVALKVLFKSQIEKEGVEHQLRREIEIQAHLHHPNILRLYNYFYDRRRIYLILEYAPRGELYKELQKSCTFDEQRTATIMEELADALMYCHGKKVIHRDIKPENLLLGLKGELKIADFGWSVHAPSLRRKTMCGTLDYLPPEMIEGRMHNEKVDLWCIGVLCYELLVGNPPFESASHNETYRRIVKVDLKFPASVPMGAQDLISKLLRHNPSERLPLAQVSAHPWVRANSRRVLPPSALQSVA
UniProt P54753, sequence (whole entry, looked up): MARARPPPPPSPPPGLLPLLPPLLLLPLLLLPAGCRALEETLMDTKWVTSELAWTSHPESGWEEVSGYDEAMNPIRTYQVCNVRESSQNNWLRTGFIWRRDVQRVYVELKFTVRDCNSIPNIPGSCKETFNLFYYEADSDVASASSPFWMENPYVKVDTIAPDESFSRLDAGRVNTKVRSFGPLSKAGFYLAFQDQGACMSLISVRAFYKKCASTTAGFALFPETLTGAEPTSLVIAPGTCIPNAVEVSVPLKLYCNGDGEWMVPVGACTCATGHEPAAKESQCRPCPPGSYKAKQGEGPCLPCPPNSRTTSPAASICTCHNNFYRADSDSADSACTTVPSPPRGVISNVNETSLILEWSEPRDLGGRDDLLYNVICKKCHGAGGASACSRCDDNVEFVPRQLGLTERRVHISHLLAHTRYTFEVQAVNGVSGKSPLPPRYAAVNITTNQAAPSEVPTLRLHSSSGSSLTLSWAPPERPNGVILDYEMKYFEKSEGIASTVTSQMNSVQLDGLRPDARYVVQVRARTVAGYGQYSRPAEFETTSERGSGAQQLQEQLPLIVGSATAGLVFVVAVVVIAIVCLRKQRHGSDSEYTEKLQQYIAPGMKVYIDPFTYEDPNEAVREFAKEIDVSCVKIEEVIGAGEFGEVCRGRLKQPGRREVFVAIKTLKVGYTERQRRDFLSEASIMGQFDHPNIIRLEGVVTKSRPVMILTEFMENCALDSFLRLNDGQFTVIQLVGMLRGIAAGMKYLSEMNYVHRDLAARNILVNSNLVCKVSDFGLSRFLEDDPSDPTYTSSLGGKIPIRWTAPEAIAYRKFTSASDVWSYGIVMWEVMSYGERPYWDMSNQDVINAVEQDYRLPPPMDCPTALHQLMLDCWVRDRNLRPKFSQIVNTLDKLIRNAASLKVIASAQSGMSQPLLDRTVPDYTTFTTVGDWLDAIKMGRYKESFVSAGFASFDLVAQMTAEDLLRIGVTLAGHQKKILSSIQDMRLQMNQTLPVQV
UniProt P05164, sequence (whole entry, looked up): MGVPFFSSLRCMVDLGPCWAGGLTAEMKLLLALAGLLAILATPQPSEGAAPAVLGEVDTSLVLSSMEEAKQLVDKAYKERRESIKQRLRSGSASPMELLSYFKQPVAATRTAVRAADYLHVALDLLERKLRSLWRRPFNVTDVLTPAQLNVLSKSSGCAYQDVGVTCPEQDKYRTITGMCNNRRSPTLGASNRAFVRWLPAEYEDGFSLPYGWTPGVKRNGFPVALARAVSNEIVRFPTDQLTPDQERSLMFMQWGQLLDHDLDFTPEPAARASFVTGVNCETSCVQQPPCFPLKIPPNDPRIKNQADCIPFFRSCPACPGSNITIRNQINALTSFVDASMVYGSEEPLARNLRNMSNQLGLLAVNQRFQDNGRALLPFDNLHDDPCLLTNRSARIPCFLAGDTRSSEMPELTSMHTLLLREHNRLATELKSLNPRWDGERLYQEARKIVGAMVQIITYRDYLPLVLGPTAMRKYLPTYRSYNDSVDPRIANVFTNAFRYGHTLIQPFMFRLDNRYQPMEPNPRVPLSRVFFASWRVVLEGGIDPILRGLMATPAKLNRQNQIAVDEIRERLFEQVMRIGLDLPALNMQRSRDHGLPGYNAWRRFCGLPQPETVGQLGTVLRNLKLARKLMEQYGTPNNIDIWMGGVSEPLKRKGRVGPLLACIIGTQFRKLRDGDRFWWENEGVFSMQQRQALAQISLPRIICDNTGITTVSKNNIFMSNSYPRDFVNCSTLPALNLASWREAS
UniProt Q96NX5, sequence (whole entry, looked up): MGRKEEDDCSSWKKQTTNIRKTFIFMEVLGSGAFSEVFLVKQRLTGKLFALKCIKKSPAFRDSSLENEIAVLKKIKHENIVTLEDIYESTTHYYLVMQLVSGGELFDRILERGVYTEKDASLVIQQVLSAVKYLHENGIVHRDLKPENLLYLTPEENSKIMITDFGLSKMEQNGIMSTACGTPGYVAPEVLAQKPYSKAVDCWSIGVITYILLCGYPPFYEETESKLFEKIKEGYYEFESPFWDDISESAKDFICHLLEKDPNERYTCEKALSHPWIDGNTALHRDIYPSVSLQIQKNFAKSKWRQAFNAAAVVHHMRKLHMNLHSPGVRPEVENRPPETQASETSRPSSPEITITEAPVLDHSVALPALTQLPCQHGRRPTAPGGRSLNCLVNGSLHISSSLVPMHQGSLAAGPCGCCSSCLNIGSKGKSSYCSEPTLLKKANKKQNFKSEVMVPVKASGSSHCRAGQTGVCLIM
UniProt Q9H1R3, sequence (whole entry, looked up): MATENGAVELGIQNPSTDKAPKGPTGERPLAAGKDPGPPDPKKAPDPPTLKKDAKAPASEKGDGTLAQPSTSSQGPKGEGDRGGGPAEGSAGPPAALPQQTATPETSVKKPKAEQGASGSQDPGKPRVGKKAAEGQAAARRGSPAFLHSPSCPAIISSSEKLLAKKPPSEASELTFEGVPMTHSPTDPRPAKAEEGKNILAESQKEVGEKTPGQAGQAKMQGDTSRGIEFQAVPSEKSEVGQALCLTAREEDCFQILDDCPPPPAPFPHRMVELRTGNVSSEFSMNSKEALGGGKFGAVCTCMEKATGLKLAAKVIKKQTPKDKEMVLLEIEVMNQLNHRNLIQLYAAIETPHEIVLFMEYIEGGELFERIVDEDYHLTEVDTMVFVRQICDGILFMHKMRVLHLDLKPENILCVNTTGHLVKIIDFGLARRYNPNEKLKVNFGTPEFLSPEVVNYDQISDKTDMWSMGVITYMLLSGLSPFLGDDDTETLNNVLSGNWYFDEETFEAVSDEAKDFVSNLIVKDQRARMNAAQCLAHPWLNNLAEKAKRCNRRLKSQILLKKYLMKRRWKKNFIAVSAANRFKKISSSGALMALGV

Structure (SMILES)	target	read-out	mode	technique	tested at	measurement	result
CC(=O)Oc1cccc(C(=O)NCc2cc(O)c(O)c(Br)c2)c1C	rep papain-like protease	enzyme activity	inhibitor	FRET	10 µM	inhibition	105%
C=CC(=O)N1CCC(COCC(=O)N2CCN(c3nc(-c4cnc(N)nc4C(F)F)nc(N4CCOC[C@@H]4C)n3)CC2)CC1	Aurora kinase B (AURKB, Homo sapiens, UniProt Q96GD4)	binding		competition with immobilised ligand	1 µM	remaining binding	100%
CCCCC(=O)Nc1ccc(-c2ccc3ncn(CCC)c(=O)c3c2)cn1	MYLK2 (Homo sapiens, UniProt Q9H1R3)	binding		competition with immobilised ligand	0.5 µM	remaining binding	90%
Cc1cccc(N(O)N=Nc2ccc(S(=O)(=O)Nc3onc(C)c3C)cc2)c1	AMY2	enzyme activity	inhibitor		20 µg/mL	inhibition	15.8%
COc1ccc(C(=O)NCc2cc(O)c(O)c(Br)c2)cc1	Replicase polyprotein 1ab, main protease (rep, Porcine epidemic diarrhea virus, UniProt P0C6Y4)	enzyme activity	inhibitor	FRET	10 µM	inhibition	105%
COc1cc(-c2cncc3c2CN(C)Cc2cc(N4CCNCC4)ccc2-3)cc(OC)c1OC	CAMK1G (Homo sapiens, UniProt Q96NX5)	enzyme activity	inhibitor		1 µM	remaining activity	102%
CC[C@H](C)[C@H](NC(=O)[C@H](CCC(N)=O)NC(=O)[C@@H](NC(=O)[C@H](CCSC)NC(=O)[C@H](CCCCN)NC(=O)[C@H](CO)NC(=O)[C@@H](NC(=O)[C@H](CCSC)NC(=O)[C@H](CC(C)C)NC(=O)[C@H](CC(N)=O)NC(=O)[C@@H](NC(=O)[C@@H](NC(=O)[C@H](CO)NC(=O)[C@H](CC(C)C)NC(=O)[C@H](C)NC(=O)[C@H](CCCNC(=N)N)NC(=O)[C@H](CCC(=O)O)NC(=O)[C@H](Cc1ccc(O)cc1)NC(=O)[C@H](Cc1ccccc1)NC(=O)[C@H](C)NC(=O)[C@H](CC(N)=O)NC(=O)[C@@H](N)CCCCN)[C@@H](C)CC)[C@@H](C)CC)[C@@H](C)O)C(C)C)C(=O)N[C@@H](CC(N)=O)C(=O)N[C@H](C(=O)O)C(C)C	MAPK3 (Homo sapiens, UniProt P27361)	enzyme activity	inhibitor	radiometric	250 µM	inhibition	35%
CN1CC(Oc2cnc(C#N)cc2-c2ccn3nc(NC(=O)C4CC4)cc3c2)C1	EPHB3 (Homo sapiens, UniProt P54753)	enzyme activity	inhibitor		1 µM	inhibition	-1%
CCN(O)N=Nc1ccc(S(=O)(=O)Nc2nccs2)cc1	AMY2	enzyme activity	inhibitor		120 µg/mL	inhibition	26.3%
Cc1cc([C@@H](C)Nc2ccccc2C(=O)O)c2nc(N3CCC(F)(F)CC3)c(C#N)c(=O)n2c1	BTK (Homo sapiens, UniProt Q06187)	binding		competition with immobilised ligand	1 µM	remaining binding	94%
CN(C)c1ccc(C(=O)NCc2cc(O)c(O)c(Br)c2)cc1	rep papain-like protease	enzyme activity	inhibitor	FRET	10 µM	inhibition	80.2%
Cc1cccc(N(O)N=Nc2ccc(S(=O)(=O)Nc3cc(C)on3)cc2)c1	AMY2	enzyme activity	inhibitor		60 µg/mL	inhibition	21.1%
NC/C(=C\F)COc1cccc(Cn2c(=S)[nH]c(=O)c3[nH]cnc32)c1	Myeloperoxidase (MPO, Homo sapiens, UniProt P05164)	enzyme activity	inhibitor	fluorescence	30 µM	inhibition	99.8%
